Measured values from different studies.
Every numbered part comes from another study and shows a few of its results, in no order.

Study 1
Target: Phosphate system positive regulatory protein PHO4, full length, GST-tagged (PHO4, Saccharomyces cerevisiae, UniProt P07270, residues 1-312)
Method: competition protein-binding microarray
Molecule type: double-stranded DNA, one strand shown
Sample: in vitro
Concentration: 2 µM
Notes: whole 60-bp probe, lowest competitor level
Added: Cbf1 competitor, 0.05 µM
Direction: higher = stronger binding
Construct (chain): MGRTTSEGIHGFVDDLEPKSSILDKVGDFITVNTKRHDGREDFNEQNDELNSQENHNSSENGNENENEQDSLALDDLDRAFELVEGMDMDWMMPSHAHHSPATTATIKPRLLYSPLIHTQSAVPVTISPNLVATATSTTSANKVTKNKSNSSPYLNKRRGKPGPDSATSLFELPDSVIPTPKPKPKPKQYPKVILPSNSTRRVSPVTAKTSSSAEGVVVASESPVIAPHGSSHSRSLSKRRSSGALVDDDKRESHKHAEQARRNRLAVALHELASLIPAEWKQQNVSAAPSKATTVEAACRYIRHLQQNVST
Strand	fluorescence intensity
TTAGGGCATTTTCGTCACACGGTAGTGCTCCAGATGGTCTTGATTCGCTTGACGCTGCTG	6070 a.u.
GGCGAGATAAAGCAGAACGTGAAGCTCAGTTAAGTAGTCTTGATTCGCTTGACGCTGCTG	8690 a.u.
TTAAGAAGCCTTTTCCATGTGAGGAAGCTTCGCCTTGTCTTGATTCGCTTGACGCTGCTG	3900 a.u.
TTGCCATCTGTCCGTCACACTTTGTTCAACAACTACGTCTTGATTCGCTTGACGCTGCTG	4520 a.u.
CGGGGTTAAGTTTTTCACGTGGAGTGCTTGCAGCAGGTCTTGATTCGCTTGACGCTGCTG	12400 a.u.
ACAGCAAGCAACCATCACGTGCTAAATCGCAAACTTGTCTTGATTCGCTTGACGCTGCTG	18600 a.u.
TTGGATGCTTTGGACGACGTGATGGACCATTTGGAAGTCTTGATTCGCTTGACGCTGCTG	4770 a.u.

Study 2
Target: RING finger protein unkempt homolog, zinc fingers 1-6, SBP tag (UNK, Homo sapiens, UniProt Q9C0B0, residues 30-357)
Chain of UniProt Q9C0B0 (30-357, looked up): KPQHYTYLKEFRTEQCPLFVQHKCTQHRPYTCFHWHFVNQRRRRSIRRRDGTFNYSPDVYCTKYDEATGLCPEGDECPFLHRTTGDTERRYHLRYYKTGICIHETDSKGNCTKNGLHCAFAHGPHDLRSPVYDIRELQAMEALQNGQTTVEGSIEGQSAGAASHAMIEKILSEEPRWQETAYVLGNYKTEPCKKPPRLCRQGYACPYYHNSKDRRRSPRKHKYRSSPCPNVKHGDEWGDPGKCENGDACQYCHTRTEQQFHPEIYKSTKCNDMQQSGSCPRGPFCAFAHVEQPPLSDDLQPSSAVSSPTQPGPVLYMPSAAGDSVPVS
Method: RNA Bind-n-Seq
Molecule type: RNA
Sample: in vitro
Concentration: 100 nM
Notes: RNA with constant flanks, vertebrate orthologous sites, ends assumed
Reference: input RNA pool
Direction: higher = stronger binding
Strand	bound/input enrichment [ratio]
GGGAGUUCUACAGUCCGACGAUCUUCACUAUCUGACUCGGGUGGAGGUUACAGAGUUUGAAGACAUAAAAUCGGGUUACAGAAUAGAUUUUUAUUUUGAUGAAAAUCCCUACUUCGAAAACAAAGUUCUCUCUAAAGAAUUCCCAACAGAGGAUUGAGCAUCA	0.335
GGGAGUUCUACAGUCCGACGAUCUAAUGCAAUGGUUGAAGGCUCUGAGCUCAGAAAGUUUCGGUCCAACUCUAGAGUUUAUCACCGGUACUUUCUUUUAGAUGCAGAUAUGCAGUCCCUGCGUUGGGAACCUUCAAAGAAGGACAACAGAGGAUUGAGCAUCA	0.363
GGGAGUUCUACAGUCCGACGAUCUUGGGAUCAGCUCCCCAAAUAGGAAUAGUAGUAAAAAAAAUAAGCAAAAUGAUAUUUGUAUAGAAAAAACAGAAGUUAAAUCAUGUAAAGUAAAUGUUGCCAAUAUUCCAGGCCCCAAAGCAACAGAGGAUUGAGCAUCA	1.9
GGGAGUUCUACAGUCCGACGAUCACUGUUGUUAAGCACUGUGUUCCAGACUGUGUCUGACUUAGUGUAACCUAGGAGAUUUUAUAGUUUUAUUUUAAUGAAAUCCUGAUUGACGCAGAGCUGUGGGGAAAAUGGUCCCUUUUACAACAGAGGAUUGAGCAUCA	2.31
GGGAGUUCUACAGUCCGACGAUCAAAUUUAUUUCAUGCCCUGGACUCCCUAUCGUACUGAUACUUUGAUAGAAUAUGCUUCUUUAGAAGAUUUCCAAAACAGUCGCCAAACAACAACGUAUAAACUUCCAAAUCGAGUAGAUGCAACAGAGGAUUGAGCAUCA	0.796
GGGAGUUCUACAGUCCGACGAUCCUCUAUGGGCCCCGCAGAGUUGAAAUAAUGGAAGAGGAAAGUGAACAGUAAUCUUCAUUUUAGUAUUUAUGUUUAGGUGUGAAAUAAAUGUUAUUUGUUGAUCAUUUCUAUAAUCCAGAGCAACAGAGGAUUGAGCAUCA	0.751

Study 3
Target: Interferon regulatory factor 5, full length, phosphomimetic (IRF5, Homo sapiens, UniProt Q13568-2, residues 1-514, S451D/S453D/S456D/S462D)
Method: protein-binding microarray
Molecule type: double-stranded DNA, one strand shown
Sample: in vitro
Concentration: 940 nM top
Notes: 60-bp whole probe
Added: salmon DNA 0.4 mg/ml
Reference: random background probes
Direction: higher = stronger binding
Constant ends, left off below: GCCTAGCAC … GTCTTGATTCGCTTGACGCTGCTG
Strand	fitted relative affinity [z-score]
CAGGAATGGCACCAGCAGGGGTGCTAG	-0.765
TTAGGTCTCTTACTGCTTTAGTGCTAG	0.202
GACGGACTGCTACGGCTGACGTGCTAG	-0.418
GACGGATCCGGTTTCGGGACGTGCTAG	4.04
TTAGAACTAAGACTGGATTAGTGCTAG	-0.499
TTCTAAACCATTTTGGTTTTGTGCTAG	-0.136
GACGATTACGGGTTTCGAGACGTGCTA	1.44

Single results of other studies
Molecule	target	test	test system	setting	scale	endpoint	value
PhoQ, residues 284 288 289 292 302 303 GTAMQF	PhoP, residues 12 14 15 18 19 VQALL (Escherichia coli, UniProt P23836)	Sort-seq, measured: YFP reporter	E. coli	PhoQ-PhoP variant library, added: 10 µM Mg2+	reference: high Mg2+ state, higher = stronger signaling	fold induction	25.8

A few entries again (study 2):
Strand	bound/input enrichment [ratio]
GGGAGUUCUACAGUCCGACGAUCACUGUUGUUAAGCACUGUGUUCCAGACUGUGUCUGACUUAGUGUAACCUAGGAGAUUUUAUAGUUUUAUUUUAAUGAAAUCCUGAUUGACGCAGAGCUGUGGGGAAAAUGGUCCCUUUUACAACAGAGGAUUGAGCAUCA	2.31
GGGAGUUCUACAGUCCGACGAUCAAAUUUAUUUCAUGCCCUGGACUCCCUAUCGUACUGAUACUUUGAUAGAAUAUGCUUCUUUAGAAGAUUUCCAAAACAGUCGCCAAACAACAACGUAUAAACUUCCAAAUCGAGUAGAUGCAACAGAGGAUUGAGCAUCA	0.796
